Experimental data collected from several papers.
Compare with care: the assays were run in different laboratories. Numbers after ± are the reported error.
Sequence of UniProt Q14680 (whole entry, looked up): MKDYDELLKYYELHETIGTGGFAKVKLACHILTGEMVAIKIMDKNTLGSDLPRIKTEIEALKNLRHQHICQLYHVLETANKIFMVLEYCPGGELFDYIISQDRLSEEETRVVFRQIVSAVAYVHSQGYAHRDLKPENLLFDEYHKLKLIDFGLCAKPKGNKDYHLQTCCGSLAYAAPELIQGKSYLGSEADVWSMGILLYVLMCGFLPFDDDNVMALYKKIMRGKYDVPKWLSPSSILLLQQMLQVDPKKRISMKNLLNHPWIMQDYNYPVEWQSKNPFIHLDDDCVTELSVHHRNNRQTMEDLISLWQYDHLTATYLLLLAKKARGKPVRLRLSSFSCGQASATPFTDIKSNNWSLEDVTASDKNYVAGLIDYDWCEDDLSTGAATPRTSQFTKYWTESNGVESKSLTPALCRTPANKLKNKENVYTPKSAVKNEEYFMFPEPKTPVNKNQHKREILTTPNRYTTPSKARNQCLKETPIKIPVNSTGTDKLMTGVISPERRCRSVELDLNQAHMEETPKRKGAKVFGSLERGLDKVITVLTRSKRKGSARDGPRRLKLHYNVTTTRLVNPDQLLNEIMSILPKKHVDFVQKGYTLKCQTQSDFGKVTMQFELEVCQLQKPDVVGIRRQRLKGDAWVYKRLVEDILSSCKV
Sequence of UniProt P42680 (whole entry, unmodified, looked up): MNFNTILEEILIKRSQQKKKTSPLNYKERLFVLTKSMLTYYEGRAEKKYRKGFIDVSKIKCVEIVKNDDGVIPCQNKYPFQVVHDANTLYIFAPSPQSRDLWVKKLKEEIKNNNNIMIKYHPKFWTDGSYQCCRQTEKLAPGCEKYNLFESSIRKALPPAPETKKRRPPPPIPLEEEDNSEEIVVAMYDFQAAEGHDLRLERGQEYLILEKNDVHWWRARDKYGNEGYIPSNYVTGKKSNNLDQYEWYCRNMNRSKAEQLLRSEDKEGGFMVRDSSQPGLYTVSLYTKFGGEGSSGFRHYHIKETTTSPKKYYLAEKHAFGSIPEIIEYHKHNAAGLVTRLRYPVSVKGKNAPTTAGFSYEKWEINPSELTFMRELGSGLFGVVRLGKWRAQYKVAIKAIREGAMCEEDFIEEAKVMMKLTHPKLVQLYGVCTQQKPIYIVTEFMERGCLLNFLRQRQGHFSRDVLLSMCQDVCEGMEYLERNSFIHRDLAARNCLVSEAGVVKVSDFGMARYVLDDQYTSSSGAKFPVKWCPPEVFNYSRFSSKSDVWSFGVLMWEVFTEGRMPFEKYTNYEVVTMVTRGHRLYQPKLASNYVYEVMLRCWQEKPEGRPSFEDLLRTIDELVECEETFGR

SMILES	tested on	assay	system	setting	scale	measurement	result
O=S(=O)(O)C(F)(F)C(F)(F)C(F)(F)C(F)(F)F	hTERT-RPTEC parental	LDH release	culture medium	concentration not given, 24 h, 96-well plate	–	LDH activity in medium	24.3 mU/mL
CCCCc1nc(N)[nH]c(=O)c1Br	HEL human embryonic lung fibroblasts	cell morphology alteration	–	–	–	minimum cytotoxic concentration	> 100 µM
CCNC/C=C\CNCCCCNCCCCNC/C=C\CNCC	293T-ACE2	–	–	40 (unit not given)	–	CC50	> 2.5 µM
C[C@@H](O)[C@H](NC(=O)[C@@H]1CSSC[C@H](NC(=O)[C@@H](Cc2ccccc2)NC(=O)CN2CCN(CC(=O)[O-])CCN(CC(=O)[O-])CCN(CC(=O)[O-])CC2)C(=O)N[C@@H](Cc2ccc(O)cc2)C(=O)N[C@H](Cc2c[nH]c3ccccc23)C(=O)N[C@@H](CCCCN)C(=O)N[C@@H]([C@@H](C)O)C(=O)N1)C(=O)O.[177Lu+3]	MEC1	gamma counter	–	240 min efflux after 2 h loading	–	retention	24.7%
CN(C)c1ccc(C(Nc2nc3c(-c4ccc([N+](=O)[O-])cc4)nn(-c4ccccc4)c3s2)P(=O)(Oc2ccccc2)Oc2ccccc2)cc1 (stereo not drawn)	Vero cells	SRB	–	10 µM, 10% fetal bovine serum	–	viability	95.4%
O=S(=O)(c1ccc(O)cc1)c1ccc(O)cc1	HepG2 spheroids, dissociated	annexin V-FITC/PI flow cytometry	–	1 µM, 24 h	–	viable cells	67.5 ± 15.8%
CC(C)C[C@H](NC(=O)C[C@H](O)[C@H](CC(C)C)NC(=O)[C@H](Cc1c[nH]cn1)NC(=O)CNC(=O)[C@@H](NC(=O)[C@H](C)NC(=O)[C@H](Cc1c[nH]c2ccccc12)NC(=O)[C@H](CCC(N)=O)NC(=O)[C@@H](Cc1ccccc1)NC(=O)CCNC(=O)CCSc1nnc(NCCC(=O)NCCC(=O)NCCCC[C@H](NC(=O)N[C@@H](CCC(=O)O)C(=O)O)C(=O)O)c2c1CCC1C(CC2)C1COC(=O)NCCNC(=O)CC[C@H](C(=O)O)N1CCN(CC(=O)O)CCN(CC(=O)O)CC1)C(C)C)C(N)=O (stereo partly drawn) [gallium-68 labelled]	–	–	athymic NMRI nude mouse, pancreas	intravenous, dose not given, 2 h, added: bombesin 480 nmol (GRPR blocking)	–	tissue uptake	0.31 %ID/g
CC(C)(c1ccc(O)cc1)c1ccc(O)cc1	HepG2 spheroids	annexin V-FITC/PI flow cytometry	–	40 µM, 24 h	–	necrotic cells	11.1 ± 1.79%
N=C(N)NCCC[C@H](NC(=O)[C@H](Cc1c[nH]c2ccccc12)NC(=O)[C@H](CCCNC(=N)N)NC(=O)[C@H](Cc1c[nH]c2ccccc12)NC(=O)[C@H](Cc1c[nH]c2ccccc12)NC(=O)[C@H](Cc1c[nH]c2ccccc12)NC(=O)[C@H](CCCNC(=N)N)NC(=O)[C@H](Cc1c[nH]c2ccccc12)NC(=O)[C@H](CCCNC(=N)N)NC(=O)CN)C(N)=O	HD11 macrophages	–	–	–	–	LC50	> 512 µM
COc1cc2c(Oc3ccc4[nH]c(C)cc4c3F)ccnc2cc1OCC1(N)CC1	–	–	paediatric recurrent refractory sarcoma	12 mg	–	grade 1 or 2 Dizzy	9.1%
O=c1ccc2ccccc2o1	HepaRG 3D spheroids	oxidative stress	–	168 h, high-content imaging	–	point of departure	727 µM
CC1=C(O)C(=O)C=C2C1=CC=C1[C@@]2(C)CC[C@@]2(C)[C@@H]3C[C@](C)(C(=O)O)CC[C@]3(C)CC[C@]12C	MYBPC3 iPSC cardiomyocytes	cytotoxicity	–	24 h	–	EC50	25.9 µM
C#CC[C@H](NC(=O)[C@H](CCCCN)NC(=O)[C@H](CCCCN)NC(=O)[C@H](Cc1c[nH]c2ccccc12)NC(=O)[C@H](CCCCN)NC(=O)[C@H](CCSC)NC(=O)[C@H](CCCNC(=N)N)NC(=O)[C@H](CCCNC(=N)N)NC(=O)[C@H](CC(N)=O)NC(=O)[C@H](CCC(N)=O)NC(=O)[C@H](Cc1ccccc1)NC(=O)[C@H](Cc1c[nH]c2ccccc12)NC(=O)[C@@H](NC(=O)[C@H](CCCCN)NC(=O)[C@@H](NC(=O)[C@H](CCC(N)=O)NC(=O)[C@@H](N)CCCNC(=N)N)[C@@H](C)CC)[C@@H](C)CC)C(=O)N[C@@H](CC(N)=O)C(=O)N[C@@H](Cc1c[nH]cn1)C(=O)N[C@H](C(=O)N[C@@H](CCSC)C(=O)N[C@@H](CC(C)C)C(=O)N[C@@H](CC(N)=O)C(=O)N[C@@H](Cc1c[nH]cn1)C(=O)N[C@@H](CC(C)C)C(=O)N[C@@H](Cc1ccc(O)cc1)C(=O)N[C@@H](C)C(=O)N[C@@H](CC(C)C)C(=O)N[C@@H](CO)C(=O)N[C@H](C(=O)N[C@@H](CCCCN)C(=O)N[C@@H](CC(=O)O)C(=O)NCC(=O)N[C@H](C(N)=O)C(C)C)[C@@H](C)CC)C(C)C	SW480	–	–	2.2 µM, three days	–	cell growth	no effect
CC[C@H](C)[C@H](NC(=O)[C@H](Cc1ccccc1)NC(=O)[C@H](CCC(=O)O)NC(=O)[C@H](CCCNC(=N)N)NC(=O)[C@H](C)NC(=O)[C@H](C)NC(=O)[C@H](CCC(N)=O)NC(=O)[C@H](CCC(=O)O)NC(=O)[C@H](CCC(=O)O)NC(=O)[C@H](CC(C)C)NC(=O)[C@H](Cc1ccc(O)cc1)NC(=O)[C@H](CO)NC(=O)[C@H](CO)NC(=O)[C@@H](NC(=O)[C@H](CC(=O)O)NC(=O)[C@H](CO)NC(=O)[C@@H](NC(=O)[C@H](Cc1ccccc1)NC(=O)[C@@H](NC(=O)CNC(=O)[C@H](CCC(=O)O)NC(=O)[C@H](C)NC(=O)CCc1c[nH]cn1)[C@@H](C)O)[C@@H](C)O)C(C)C)C(=O)N[C@@H](C)C(=O)N[C@@H](Cc1c[nH]c2ccccc12)C(=O)N[C@@H](CC(C)C)C(=O)N[C@H](C(=O)N[C@@H](CCCNC(=N)N)C(=O)NCC(=O)N[C@@H](CCCNC(=N)N)C(=O)N[C@@H](CCCCNC(=O)COCCOCCNC(=O)COCCOCCNC(=O)CC[C@H](NC(=O)CCCCCCCCCCCCCCCCC(=O)O)C(=O)O)C(=O)NCC(=O)NCC(=O)N[C@@H](CO)C(=O)N[C@@H](CCCCNc1c(NCCCCCN(O)C(=O)CCC(=O)NCCCCCN(O)C(=O)CCC(=O)NCCCCCN(O)C(C)=O)c(=O)c1=O)C(=O)O)C(C)C [zirconium-89 labelled]	–	–	rat, colon	iv, 3 nmol/kg, 168 h, ex vivo	–	tissue uptake	0.17 %ID/g
Oc1ccc(C2(c3ccc(O)cc3)c3ccccc3-c3ccccc32)cc1	HepG2 spheroids, dissociated	annexin V-FITC/PI flow cytometry	–	0.1 µM, 24 h	–	viable cells	67.9 ± 10.7%
Fc1ccc(Oc2ccnc3cc(Cl)cc(Cl)c23)cc1	HEK293-H PPARγ-UAS-bla cells	cell confluency, IncuCyte imaging	–	24 h, nominal concentration	–	IC10	9.36 µM
C[C@H](NC(=O)[C@H](Cc1ccc(O)cc1)NC(=O)[C@H](CCCNC(=N)N)NC(=O)[C@H](CCCNC(=N)N)NC(=O)[C@H](CCCNC(=N)N)NC(=O)[C@@H](N)CCCNC(=N)N)C(=O)N[C@@H](CCCNC(=N)N)C(=O)N1CCC[C@H]1C(=O)N[C@@H](Cc1ccc(O)cc1)C(=O)N[C@@H](Cc1ccc(O)cc1)C(=O)N[C@@H](CCCNC(=N)N)C(=O)N[C@@H](CCCNC(=N)N)C(=O)N[C@@H](CCCNC(=N)N)C(=O)O	DF-1	–	–	5 µM, 12 h	relative to: untreated cells	viability	103 ± 1.11%
COc1cccc(-c2n[nH]c(SCc3ccccn3)n2)c1OC	Salmonella typhimurium	Ames test, preincubation	TA100	0.25 mg/plate, without S9	–	revertant colonies per plate	126
N#C[C@@]1(n2ccc(N)nc2=O)O[C@H](CO)[C@@H](O)[C@H]1O	human PBM cells	–	–	–	–	CC50	97.6 ± 4.4 µM
C[C@H]1CN(c2n[nH]c3nc(N[C@H]4CC[C@H](NS(=O)(=O)CCC(F)(F)F)CC4)ncc23)CCO1	Maternal embryonic leucine zipper kinase (MELK, Homo sapiens, UniProt Q14680)	inhibitor, Kinobeads competition profiling	–	0.16 µM	relative to: vehicle	relative abundance	1.03
COc1ccc(N2C(=O)N(c3c(C)cccc3Cl)Cc3cnc(Nc4ccc(C5CCN(C)CC5)cc4OC)nc32)nc1	Tyrosine-protein kinase Tec (TEC, Homo sapiens, UniProt P42680)	kinase activity	–	0.5 µM	–	inhibition	92%
CC[C@@H](C)[C@H]1O[C@@H](c2c(O)c(-c3ccccc3)cn(OC)c2=O)[C@H](C)C[C@@H]1C	SK-MEL	cytotoxicity, neutral red uptake	–	48 h	–	IC50	> 10 µg/mL
CNC(=O)Oc1cc(C)c(SC)c(C)c1	SH-SY5Y	cell viability, propidium iodide staining	–	24 h, nominal concentration	–	IC10	30.7 µM
CO[C@H]1C[C@@H]2CC[C@@H](C)[C@@](O)(O2)C(=O)C(=O)N2CCCC[C@H]2C(=O)O[C@H]([C@H](C)C[C@@H]2CC[C@@H](OC(=O)NCCOCCOCCOCCOCCOCCOCCOCCOCCC(=O)N3CCc4cc(Cn5nc(-c6ccc7oc(N)nc7c6)c6c(N)ncnc65)ccc4C3)[C@H](OC)C2)C[C@@H](O)[C@H](C)/C=C(\C)[C@@H](O)[C@@H](OC)C(=O)[C@H](C)C[C@H](C)/C=C/C=C/C=C/1C	–	phase 1 dose escalation, refers to: vomiting	advanced solid tumour patients	intravenous, 12 mg weekly, any grade	–	TRAE incidence	33.3%

A few entries again:
SMILES	tested on	assay	system	setting	scale	measurement	result
CCNC/C=C\CNCCCCNCCCCNC/C=C\CNCC	293T-ACE2	–	–	40 (unit not given)	–	CC50	> 2.5 µM
COc1cc2c(Oc3ccc4[nH]c(C)cc4c3F)ccnc2cc1OCC1(N)CC1	–	–	paediatric recurrent refractory sarcoma	12 mg	–	grade 1 or 2 Dizzy	9.1%
CC[C@H](C)[C@H](NC(=O)[C@H](Cc1ccccc1)NC(=O)[C@H](CCC(=O)O)NC(=O)[C@H](CCCNC(=N)N)NC(=O)[C@H](C)NC(=O)[C@H](C)NC(=O)[C@H](CCC(N)=O)NC(=O)[C@H](CCC(=O)O)NC(=O)[C@H](CCC(=O)O)NC(=O)[C@H](CC(C)C)NC(=O)[C@H](Cc1ccc(O)cc1)NC(=O)[C@H](CO)NC(=O)[C@H](CO)NC(=O)[C@@H](NC(=O)[C@H](CC(=O)O)NC(=O)[C@H](CO)NC(=O)[C@@H](NC(=O)[C@H](Cc1ccccc1)NC(=O)[C@@H](NC(=O)CNC(=O)[C@H](CCC(=O)O)NC(=O)[C@H](C)NC(=O)CCc1c[nH]cn1)[C@@H](C)O)[C@@H](C)O)C(C)C)C(=O)N[C@@H](C)C(=O)N[C@@H](Cc1c[nH]c2ccccc12)C(=O)N[C@@H](CC(C)C)C(=O)N[C@H](C(=O)N[C@@H](CCCNC(=N)N)C(=O)NCC(=O)N[C@@H](CCCNC(=N)N)C(=O)N[C@@H](CCCCNC(=O)COCCOCCNC(=O)COCCOCCNC(=O)CC[C@H](NC(=O)CCCCCCCCCCCCCCCCC(=O)O)C(=O)O)C(=O)NCC(=O)NCC(=O)N[C@@H](CO)C(=O)N[C@@H](CCCCNc1c(NCCCCCN(O)C(=O)CCC(=O)NCCCCCN(O)C(=O)CCC(=O)NCCCCCN(O)C(C)=O)c(=O)c1=O)C(=O)O)C(C)C [zirconium-89 labelled]	–	–	rat, colon	iv, 3 nmol/kg, 168 h, ex vivo	–	tissue uptake	0.17 %ID/g
CC1=C(O)C(=O)C=C2C1=CC=C1[C@@]2(C)CC[C@@]2(C)[C@@H]3C[C@](C)(C(=O)O)CC[C@]3(C)CC[C@]12C	MYBPC3 iPSC cardiomyocytes	cytotoxicity	–	24 h	–	EC50	25.9 µM
